Published values pooled from the literature.
Numbered parts are unrelated; each lists some results of a single study.

Sample 1 — technique: RNA Bind-n-Seq; form: RNA; medium: in vitro; tested at: not given; reference: input RNA pool; direction: higher = stronger binding
Target: RING finger protein unkempt homolog, zinc fingers 1-6, GST-SBP tag (UNK, Homo sapiens, UniProt Q9C0B0, residues 30-357)
UniProt Q9C0B0, sequence (30-357, looked up): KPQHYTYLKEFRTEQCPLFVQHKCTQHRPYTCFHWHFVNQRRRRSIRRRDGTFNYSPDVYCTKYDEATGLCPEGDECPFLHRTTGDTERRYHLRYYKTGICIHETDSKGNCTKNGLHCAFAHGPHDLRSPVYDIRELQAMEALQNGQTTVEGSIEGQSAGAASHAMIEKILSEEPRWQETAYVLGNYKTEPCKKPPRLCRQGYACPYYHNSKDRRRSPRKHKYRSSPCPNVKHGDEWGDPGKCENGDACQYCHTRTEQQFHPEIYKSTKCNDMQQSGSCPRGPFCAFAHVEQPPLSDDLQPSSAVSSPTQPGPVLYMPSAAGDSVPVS
Setting: RNA with constant flanks, human-mouse chimeric sites, ends assumed
Oligonucleotide | bound/input enrichment [ratio]
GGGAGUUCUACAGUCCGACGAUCCUGGCACUCUAUCAGAUAUAUUAAUUUUUUAAUGUAGAUAAAAUUUCAAAAAUGAAUGGCUAGUUUACACGUUUAACUAGGGUUUUACUAUAUAUGUGUACAUAUGUAUAUAUAUAUAUACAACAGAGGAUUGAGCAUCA | 5.09
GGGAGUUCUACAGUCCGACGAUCAUAAAGGCCAUGUUGAGUGGUCCAGGUCAGUUUGCUGAGAAUGAAACCAACGAGGUCAAUUUUAGAGAGAUCCCCUCACAUGUGCUAUCAAAAGUGUGCAUGUAUUUUACGUACAAGGUCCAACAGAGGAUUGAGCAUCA | 0.23
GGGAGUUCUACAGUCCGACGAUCGGUGGGGUGGUCAUUGCCGUUUGAGCUGCUGAUUUUCAUGAGUCGCCCAUUCAGAACUCGUGUAGGGUUGACAAUGUGGGGGGGUGGGGGAUCCAGCUAUUUUUUUUAUUUUCAAGUCCACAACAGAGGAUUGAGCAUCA | 2.29
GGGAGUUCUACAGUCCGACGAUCAGAAAGCAAAACUUGGAACGAUUUAAGAAAGGAGAUGUAAGAUUCUUGAUUUGCACAGAUGUAGCUGCUAGAGGGAUUGAUAUCCAUGGCGUUCCUUAUGUGAUCAAUGUCACUCUGCCUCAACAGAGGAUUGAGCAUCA | 0.142
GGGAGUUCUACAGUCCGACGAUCCACAGAGCAGCACCUACCCCCUCCUCCUUUCCACACCUGCAAACUCUUUUACUUGGGCUGAAUAUUUAGUGUAAUUACAUCUCAGCUUUUGAGGGCUCCUGUGGCAAUUCCCGGAUUAAACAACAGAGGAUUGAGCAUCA | 1.11
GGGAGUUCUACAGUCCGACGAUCACCUCCCCCUCCCGCCUCACCCCACCCCCGCUUUUUGGAAAGUUUUUGGCGUUUCUUUUCCUUCCCCAUACAAAGUGGUUUUUACCACCCCCGCAAGUGGGGCUUGAAGGGCUUGACGGACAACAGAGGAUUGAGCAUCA | 0.661
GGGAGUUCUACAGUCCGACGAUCAAUGUGGAGUUGAGUUCCUUGGCCCGGCUUCCCAGCUUGAAUAAACUCCGGAAGUUGGAACUUAGUGACAAUAUAAUUUCUGGAGGCUUGGAAGUCCUGGCAGAGAAAUGUCCAAAUCUUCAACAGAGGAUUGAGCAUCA | 0.298
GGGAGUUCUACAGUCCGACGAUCGCAAGAGAUGAUGAGGCGGCAGCUGUUGCCCUUUCCUCCCUGAUUCAUGCUUUGGAUGAGUUAAACAUGGUCGCCAUCGUCCGAUAUGCUUAUGACAAAAGAUCUAAUCCUCAAGUUGGUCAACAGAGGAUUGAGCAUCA | 0.127

Sample 2 — technique: protein binding microarray; form: double-stranded DNA, one strand shown; medium: in vitro; tested at: not given; reference: not given; direction: higher = stronger binding
Target: Histone acetyltransferase KAT6A, winged helix 1, GST fusion (KAT6A, Homo sapiens, UniProt Q92794, residues 1-85)
Setting: 8-mer, flanks averaged, mean of 2 arrays, mostly near background
Target sequence (chain): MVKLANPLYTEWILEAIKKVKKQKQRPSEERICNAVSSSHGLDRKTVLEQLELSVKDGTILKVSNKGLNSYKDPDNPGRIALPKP
Oligonucleotide | E-score
AACATTAA | 0.0371
AGGAAGTG | -0.117
GCGTTCAC | 0.107
CCGCGACG | 0.424
AATACGAT | -0.0815
AATTGTTC | -0.154
CAGCCAAA | -0.195
AACAGAAA | -0.182
CCATTTAA | -0.248
ATGTGGAA | -0.187
ACTGGTCT | -0.161
TACATAGA | -0.232
ACGGAGGC | 0.271
CAAGGCCC | 0.00194
CTTTAACA | 0.0884
CCTTAATA | -0.118
CCCAGCCC | -0.0812
ATGGAATC | -0.0218
CCCCACGC | 0.101
CACGCTCA | -0.0533

Sample 3 — technique: aptamer microarray, sandwich; form: DNA with 2'F-ANA; medium: in vitro; tested at: 200 nM; added: Cy3 exosite-II aptamer, 400 nM; direction: higher = stronger binding; oligonucleotide: GGTTGGTGTGGTTGG
Target: Prothrombin, mature alpha-thrombin (F2, Homo sapiens, UniProt P00734)
Setting: whole 15-mer aptamer, many near background
Modification | mean fluorescence intensity [a.u.]
2'F-ANA at 1 2 5 6 7 9 10 14 15 | 49.3
2'F-ANA at 1 2 4 9 12 14 | 53.9
2'F-ANA at 1 2 4 8 | 155
2'F-ANA at 1 3 12 | 719
2'F-ANA at 5 6 8 9 14 15 | 69.2
2'F-ANA at 1 2 4 6 7 8 9 10 13 14 15 | 57.6
2'F-ANA at 1 2 3 4 7 8 9 11 13 | 145
2'F-ANA at 2 3 4 5 6 7 8 9 10 13 14 | 50.4
2'F-ANA at 1 2 3 4 5 6 8 9 12 13 14 | 48.8
2'F-ANA at 1 2 4 5 7 8 9 10 11 14 | 51.6
2'F-ANA at 1 2 4 10 11 12 13 14 | 45.4
2'F-ANA at 3 4 5 6 8 10 13 14 15 | 46.7
2'F-ANA at 1 2 4 7 9 10 11 13 | 49.8
2'F-ANA at 1 3 4 7 9 11 13 14 15 | 70.9
2'F-ANA at 1 2 6 7 8 9 13 14 15 | 102
2'F-ANA at 3 4 5 7 9 11 14 | 46.9

Sample 4 — technique: universal PBM; form: double-stranded DNA, one strand shown; medium: in vitro; tested at: 600 nM; direction: higher = stronger binding
Target: Sal-like protein 4, full length isoform A (SALL4, Homo sapiens, UniProt Q9UJQ4, residues 1-1053)
UniProt Q9UJQ4, sequence (whole entry, looked up): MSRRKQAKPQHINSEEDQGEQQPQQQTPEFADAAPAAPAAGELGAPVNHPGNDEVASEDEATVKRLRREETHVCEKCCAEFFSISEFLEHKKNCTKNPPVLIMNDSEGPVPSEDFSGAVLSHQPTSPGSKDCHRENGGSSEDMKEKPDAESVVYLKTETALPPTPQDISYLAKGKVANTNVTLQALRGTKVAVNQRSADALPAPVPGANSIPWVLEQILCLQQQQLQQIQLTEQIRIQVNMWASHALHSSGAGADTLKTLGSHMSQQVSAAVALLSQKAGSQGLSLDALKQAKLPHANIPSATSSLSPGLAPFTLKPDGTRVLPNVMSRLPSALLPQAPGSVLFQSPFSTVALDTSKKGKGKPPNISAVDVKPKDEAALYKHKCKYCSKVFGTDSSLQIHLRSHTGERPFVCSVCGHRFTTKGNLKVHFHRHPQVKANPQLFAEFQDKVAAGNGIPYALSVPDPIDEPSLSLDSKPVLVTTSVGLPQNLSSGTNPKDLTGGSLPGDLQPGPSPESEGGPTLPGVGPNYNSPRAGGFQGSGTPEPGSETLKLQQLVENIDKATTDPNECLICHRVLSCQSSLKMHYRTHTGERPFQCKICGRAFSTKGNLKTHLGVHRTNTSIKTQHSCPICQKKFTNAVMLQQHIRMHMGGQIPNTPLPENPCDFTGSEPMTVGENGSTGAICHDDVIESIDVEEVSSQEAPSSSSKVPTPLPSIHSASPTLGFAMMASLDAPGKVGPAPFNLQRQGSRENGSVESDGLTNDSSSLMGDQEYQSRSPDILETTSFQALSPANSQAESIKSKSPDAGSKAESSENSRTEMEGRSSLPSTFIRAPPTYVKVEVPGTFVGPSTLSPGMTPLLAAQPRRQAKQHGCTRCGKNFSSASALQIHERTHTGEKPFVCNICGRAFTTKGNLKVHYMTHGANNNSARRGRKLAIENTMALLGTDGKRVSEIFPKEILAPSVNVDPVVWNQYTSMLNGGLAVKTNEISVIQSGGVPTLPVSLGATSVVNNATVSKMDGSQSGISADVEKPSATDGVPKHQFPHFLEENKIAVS
Setting: 8-mer, flanks averaged, mean of replicates
Oligonucleotide | E-score
CACGCGGC | -0.306
GCGTTATA | 0.126
GGGAGCGA | -0.231
AAGAGAGT | 0.00361
AGTTTAGG | -0.0473
AGTGGTGG | -0.0296
ACTTCATG | -0.0494
ATCCTCCC | -0.132
ATAGGACG | -0.00125
AATACTGG | 0.036
GCAACCCC | -0.293
AGTTAACC | 0.0583
AGGGAATA | 0.162
GAACGAAC | 0.0384
AGTGTGGG | 0.0133
GGAGAATA | 0.2
ACACAGCC | -0.157
CCATTTTA | 0.237
AACTGATT | 0.136
ACGCCAGC | -0.381
GTCCAGAC | -0.267
CGGCTTAC | -0.192
ACAAGTAA | 0.235
CGCTTGTA | -0.0183

For quick reference, copied from above (sample 4):
Oligonucleotide | E-score
GGGAGCGA | -0.231
AAGAGAGT | 0.00361
AGTTTAGG | -0.0473
AGTGGTGG | -0.0296
ACTTCATG | -0.0494
ATCCTCCC | -0.132
ATAGGACG | -0.00125
AATACTGG | 0.036
GCAACCCC | -0.293
AGTTAACC | 0.0583
